Results pooled from the literature.
Protocols differ between the studies behind these lines. ± marks the error that the study gave.
Matrix protein 2 S31N: Matrix protein 2 (Influenza A virus, UniProt P0DOF5, S31N)

CC1CC(c2ccc(S(N)(=O)=O)cc2)=NN1c1ccc(C#N)c(Cl)c1 (stereo not drawn) — EC50 (SARS-CoV-2; viral replication; Calu-3, B.1.617.2 Delta variant; 72 h): > 100 µM
CC(C)(C)[C@H](NC(=O)NC1(CS(=O)(=O)C(C)(C)C)CCCCC1)C(=O)N1C[C@H]2[C@@H]([C@H]1C(=O)N[C@H](C#N)C[C@@H]1CCNC1=O)C2(C)C — delta Tm (Replicase polyprotein 1ab, main protease (rep, Severe acute respiratory syndrome coronavirus 2, UniProt P0DTD1, C3408A); binder, thermal shift): 1.5 °C
COc1ccc2ccc(C(=O)Nc3ccc(CN)cc3)c(O)c2c1 — EC50 (SARS-CoV-2; viral replication; D614G): 8.36 ± 2.52 µM
Cc1ccc(N2CC3CCC(C2)N3C)cc1C(=O)N[C@H](C)c1cc(-c2cnn(C)c2)nc2ccccc12 — EC50 (SARS-CoV-2; viral replication; Nsp5 L50F/E166A/L167F): 0.22 µM
Oc1ccc(CCCCCCCCC(O)c2c(O)cccc2O)cc1O (stereo not drawn) — EC50 (SARS-CoV-2; viral replication, MTT; HEK293T ACE2, Delta B.1.617.2): 8.3 µM
CC1CC(c2ccc(C(=O)O)cn2)=NN1c1ccc(C#N)c(Cl)c1 (stereo not drawn) — EC50 (SARS-CoV-2; viral replication; Calu-3, B.1.617.2 Delta variant; 72 h): 89.8 µM
O=C(CCCCCCCCCCc1ccc(O)c(O)c1)c1c(O)cccc1O — EC50 (SARS-CoV-2; viral replication, MTT; HEK293T ACE2, Gamma P.1): 16 µM
O=c1[nH]cnc2c(C3NC(COP(=O)(O)OP(=O)(O)OP(=O)(O)O)C(O)C3O)c[nH]c12 (stereo not drawn) — EC50 (SARS-CoV-2; viral RNA copies; Vero C1008, Omicron BA.1; 48 h): 0.41 ± 0.03 µM
CC(=O)Oc1ccc(CCCCCCCCC(=O)c2c(OC(C)=O)cccc2OC(C)=O)cc1OC(C)=O — EC50 (SARS-CoV-2; viral replication, MTT; HEK293T ACE2, Delta B.1.617.2): 1.4 µM
CC(C)C(=O)OC[C@H]1O[C@@](C#N)(n2ccc(N)nc2=O)[C@H](O)[C@@H]1O — EC50 (SARS-CoV-2; Calu-3, Delta): 2.5 ± 0.1 µM
COc1ccc2c(O)c(C(=O)Nc3ccc(CN)cc3)ccc2c1 — EC50 (SARS-CoV-2; viral replication; D614G): 5.3 ± 1.01 µM
Cc1cc(C(=O)O)ccc1C1=NN(c2ccc(C#N)c(Cl)c2)C(C)C1 (stereo not drawn) — EC50 (SARS-CoV-2; viral replication; Calu-3, B.1.617.2 Delta variant; 72 h): 29.2 µM
Cc1nc(CNC23CC4CC(CC(C4)C2)C3)c[nH]1 — inhibition (Matrix protein 2 S31N; proton channel activity, inhibitor; Influenzavirus A, S31N mutant; 100 µM): 16%
N#CC1(c2ccc3c(N)ncnn23)OC(COP(=O)(O)OP(=O)(O)OP(=O)(O)O)C(O)C1O (stereo not drawn) — EC50 (SARS-CoV-2; viral RNA copies; Vero C1008, Omicron BA.1; 48 h): 1.82 ± 0.08 µM
O=C(NC1CCN(c2ncnc3[nH]cnc23)CC1)c1cccc(NS(=O)(=O)c2ccc(C(F)(F)F)cc2)c1 — EC50 (SARS-CoV-2; viral replication; A549-ACE2, Delta variant; 24 h): 0.5 µM
CCC1CC(c2ccc(C(=O)O)cc2C)=NN1c1ccc(C#N)c(Cl)c1 (stereo not drawn) — EC50 (SARS-CoV-2; viral replication; Calu-3, B.1.617.2 Delta variant; 72 h): 4.2 µM
O=C(CCCCCCc1ccc(O)c(O)c1)c1c(O)cccc1O — EC50 (SARS-CoV-2; viral replication, MTT; HEK293T ACE2, Alpha B.1.1.7): 2.9 µM
Cc1nc(CNC23CC4CC(CC(C4)C2)C3)no1 — inhibition (Matrix protein 2 S31N; proton channel activity, inhibitor; Influenzavirus A, S31N mutant; 100 µM): 60%

For quick reference, copied from above:
O=C(CCCCCCCCCCc1ccc(O)c(O)c1)c1c(O)cccc1O — EC50 (SARS-CoV-2; viral replication, MTT; HEK293T ACE2, Gamma P.1): 16 µM
O=c1[nH]cnc2c(C3NC(COP(=O)(O)OP(=O)(O)OP(=O)(O)O)C(O)C3O)c[nH]c12 (stereo not drawn) — EC50 (SARS-CoV-2; viral RNA copies; Vero C1008, Omicron BA.1; 48 h): 0.41 ± 0.03 µM
